{"data": "Results gathered from unrelated publications", "note": "Protocols differ between the studies behind these lines."}
{"SMILES": "C1CCc2c(c(N3CCOCC3)nc3sc4c(N5CCNCC5)nnnc4c23)C1", "species": "male Swiss mouse", "sample": "plasma", "route": "intravenous", "dose": "3 mg/kg", "Cmax": "241 ng/mL"}
{"SMILES": "COC(=O)c1cc(Cl)ccc1N(C)C(=O)c1ccn2ncc(-c3ccc(C(N)=O)cc3)c2c1", "species": "female C57BL/6 mouse", "sample": "plasma", "route": "oral", "dose": "10 mg/kg", "Cmax": "32.7 nM"}
{"SMILES": "O=C(O[C@@H]1Cc2c(O)cc(O)cc2O[C@@H]1c1cc(O)c(O)c(O)c1)c1cc(O)c(O)c(O)c1", "species": "mouse", "sample": "plasma", "route": "oral", "dose": "50 mg/kg", "notes": "single dose", "Cmax": "76.3 nM"}
{"SMILES": "Cc1ncsc1-c1ccc(CNC(=O)[C@@H]2C[C@@H](O)CN2C(=O)[C@@H](NC(=O)CCCCCCCCCCNC(=O)O[C@H]2C[C@@H](C)C=C3C=C[C@H](C)[C@H](CC[C@@H]4C[C@@H](O)CC(=O)O4)[C@H]32)C(C)(C)C)cc1", "species": "C57BL/6 mouse", "sample": "plasma", "route": "oral", "dose": "60 mg/kg", "notes": "single dose", "Cmax": "470 nM"}
{"SMILES": "CCOC(=O)CN(C(=O)c1ccn2ncc(-c3ccc(C(=O)NC)cc3)c2c1)c1ccc(Cl)cc1", "species": "female C57BL/6 mouse", "sample": "plasma", "route": "oral", "dose": "10 mg/kg", "Cmax": "293 nM"}
{"SMILES": "CC(C)c1cc(C(=O)NCCN)c2cnn(C(C)C)c2n1", "species": "female BALB/c mouse", "sample": "plasma", "route": "intraperitoneal", "dose": "50 mg/kg", "Cmax": "2840 ng/mL"}
{"SMILES": "CNC(=O)c1ccc(-c2cnn3ccc(C(=O)N(C[C@H]4CCC(=O)O4)c4ccc(OC(F)(F)F)cc4)cc23)cc1", "species": "female C57BL/6 mouse", "sample": "plasma", "route": "oral", "dose": "10 mg/kg", "Cmax": "31.7 nM"}
{"SMILES": "CC(C)n1ncc2c(C(=O)NCC3(C)CNC3)cc(C3CC3)nc21", "species": "female BALB/c mouse", "sample": "plasma", "route": "intraperitoneal", "dose": "50 mg/kg", "Cmax": "2300 ng/mL"}
{"SMILES": "COc1ccc(CC[C@@H](NC(=O)[C@H](CCCc2ccccc2)NC(=O)CN2CCOCC2)C(=O)N[C@H](Cc2ccc(C)cc2)C(=O)NO)cc1", "species": "BALB/c mouse", "sample": "plasma", "route": "intraperitoneal", "dose": "30 mg/kg", "Cmax": "~400 ng/mL"}
{"SMILES": "O=C(O)CCN1C(=O)/C(=C2/C(=O)Nc3ccc(Cl)cc32)SC1=S", "species": "mouse", "sample": "plasma", "route": "intraperitoneal", "dose": "25 mg/kg", "Cmax": "2640 ng/mL"}
{"SMILES": "Nc1ccn([C@@H]2O[C@H](CO)[C@@H](O)C2(F)F)c(=O)n1", "species": "male BALB/c mouse", "sample": "plasma", "route": "intravenous", "dose": "38 µmol/kg", "Cmax": "183000 nM"}
{"SMILES": "COc1cc(Nc2ncc3c(n2)-c2ccc(Cl)cc2C(c2c(F)cccc2OC)=NC3)ccc1C(=O)O", "species": "SCID mouse", "sample": "plasma", "route": "oral", "dose": "20.8 mg/kg", "notes": "single dose", "Cmax": "42500 nM"}
{"SMILES": "COc1cccc(CN)c1O", "species": "male C57BL/6 mouse", "sample": "spleen", "route": "intraperitoneal", "dose": "200 mg/kg", "notes": "single dose", "Cmax": "936000 ng/g"}
{"SMILES": "CCCS(=O)(=O)Nc1c(F)ccc(C(=O)c2n[nH]c3ncc(-c4ccncc4)cc23)c1F", "species": "male C57BL/6 mouse", "sample": "plasma", "route": "oral", "dose": "30 mg/kg", "Cmax": "53500 nM"}
{"SMILES": "COc1ccc2c(c1OCCCS(=O)(=O)O)C(=O)O[C@@H]2[C@H]1c2c(c(Br)c3c(c2OC)OCO3)CCN1C", "species": "male CD-1 mouse", "sample": "plasma", "route": "oral", "dose": "50 mg/kg", "Cmax": "8.5 ng/mL"}
{"note": "Some of these lines once more:"}
{"SMILES": "CNC(=O)c1ccc(-c2cnn3ccc(C(=O)N(C[C@H]4CCC(=O)O4)c4ccc(OC(F)(F)F)cc4)cc23)cc1", "species": "female C57BL/6 mouse", "sample": "plasma", "route": "oral", "dose": "10 mg/kg", "Cmax": "31.7 nM"}
{"SMILES": "CC(C)n1ncc2c(C(=O)NCC3(C)CNC3)cc(C3CC3)nc21", "species": "female BALB/c mouse", "sample": "plasma", "route": "intraperitoneal", "dose": "50 mg/kg", "Cmax": "2300 ng/mL"}
